Measured values gathered from unrelated publications.
Each line is one published result; not all experiments were run side by side. Several values in a cell are separate wells, animals, samples, runs or records. Numbers after ± are the reported error.

For `CC(C)(O)c1cc(Nc2cc(Oc3cn(C4CC4)nc3C3CCOCC3)ccn2)ccn1`, “treatment-emergent adverse events” read 5% (Thrombocytopenia; advanced cancer patients, grade 4 glioma expansion; oral, 50 mg twice daily, all causality any grade).
`O=c1oc(-c2cccc(F)c2)ns1` has a hydrolysis half-life of 0.565 h (RPMI medium; concentration not given, 37 °C, spontaneous hydrolysis).
`CC[C@H](C)[C@H](NC(=O)[C@H](Cc1ccccc1)NC(=O)[C@H](CCC(=O)O)NC(=O)[C@H](CCCCNC(=O)COCCOCCNC(=O)COCCOCCNC(=O)CC[C@H](NC(=O)CCCCCCCCCCCCCCCCC(=O)O)C(=O)O)NC(=O)[C@H](C)NC(=O)[C@H](C)NC(=O)[C@H](CCC(N)=O)NC(=O)CNC(=O)[C@H](CCC(=O)O)NC(=O)[C@H](CC(C)C)NC(=O)[C@H](Cc1ccc(O)cc1)NC(=O)[C@H](CO)NC(=O)[C@H](CO)NC(=O)[C@@H](NC(=O)[C@H](CC(=O)O)NC(=O)[C@H](CO)NC(=O)[C@@H](NC(=O)[C@H](Cc1ccccc1)NC(=O)[C@@H](NC(=O)CNC(=O)[C@H](CCC(=O)O)NC(=O)C(C)(C)NC(=O)[C@@H](N)Cc1cnc[nH]1)[C@@H](C)O)[C@@H](C)O)C(C)C)C(=O)N[C@@H](C)C(=O)N[C@@H](Cc1c[nH]c2ccccc12)C(=O)N[C@@H](CC(C)C)C(=O)N[C@H](C(=O)N[C@@H](CCCNC(=N)N)C(=O)NCC(=O)N[C@@H](CCCNC(=N)N)C(=O)NCC(=O)O)C(C)C`: “tmax at steady state” 2.1 h (healthy men and women; oral, 14 mg once daily, with SNAC, median).
`O=C(c1ccc(F)c(F)c1Nc1ccc(I)cc1F)N1CC(O)([C@@H]2CCCCN2)C1` — result for “adverse events of special interest”: 33% (human patients; oral, dose not given, dose escalation, tablet).
For `COc1ccc(N2CCN(CCCNC(=O)c3cc(Nc4ccc(OC)cc4OC)nc4ccccc34)CC2)cc1`, the maximum response was -13.6% (Vero-E6; CellTiter-Glo ATP; 72 h, second round 5-point; reference: DMSO 0%, hyamine -100%, more negative, more toxic).
`CC(C)[C@@H]1NC(=O)CNC(=O)[C@H](CC(N)=O)NC(=O)[C@H](CCCNC(=N)N)NC(=O)[C@H](Cc2ccc(O)cc2)NC(=O)[C@H](C(C)C)NC(=O)[C@@H](NC(=O)[C@@H](NC(=O)[C@H](CC(N)=O)NC(=O)[C@H](Cc2c[nH]c3ccccc23)NC(=O)[C@H](C)NC(=O)[C@H](Cc2ccccc2)NC(=O)CN)C(C)C)CSSC[C@@H](C(=O)N[C@@H](Cc2cnc[nH]2)C(=O)N[C@@H](CCCNC(=N)N)C(=O)N[C@@H](CCCNC(=N)N)C(=O)N[C@@H](C)C(=O)N[C@@H](CC(N)=O)C(N)=O)NC(=O)[C@H](C(C)C)NC(=O)[C@H](CCCNC(=N)N)NC1=O`: “mean platelet volume” 6.5 ± 0.31 fL (ICR mice, blood; intraperitoneal, 5 mg/kg, day 5).
`CN1CC[C@@H](c2c(O)cc(O)c3c(=O)cc(-c4ccc(C(F)(F)F)cc4Cl)oc23)[C@@H]1CO` — result for “patients with adverse event”: 0% (item: Anorexia; AML; oral, 100 mg, intermittent dosing).
Under “patients with Dyspnea TEAE”, `C[C@]1(O)C[C@@](N)(c2ccc(-c3nc4n(c3-c3ccccc3)COc3ccncc3-4)cc2)C1` is recorded as 11.1% (human, advanced or metastatic solid tumours; once daily, dose escalation total, any grade).
`O=C(O)CCCOc1ccc(F)cc1-c1cc(-c2ccccc2C(F)(F)F)n(-c2ccccc2)n1` gave a blood chemistry of 13.8 ± 4.2 mg/dL (item: UN; Crl:CD(SD) rats, female, blood; iv, 25 µg/kg, 1 day).
`CC(C)Nc1ccnc(Nc2cccc(-c3cccnc3)c2)n1` has a blood chemistry of 3660 U/L (item: amylase; mouse, blood; intraperitoneal, 5 mg/kg).
For `Cn1nc(NS(C)(=O)=O)c2c(Cl)ccc(-n3c([C@H](Cc4cc(F)cc(F)c4)NC(=O)Cn4nc(C(F)F)c5c4C(F)(F)[C@@H]4C[C@H]54)nc4nc(OCCC(F)(F)F)ccc4c3=O)c21`, tolerability read “not toxic” (human; oral, dose not given, single and multiple doses).
The faecal recovery of `O=c1cc(-c2ccc(O)c(O)c2)oc2cc(O)cc(O)c12` is reported as 0.01 ± 0.01% (Sprague-Dawley rat, male, obese, faeces; oral, 100 mg/kg neohesperidin, 48 h; reference: dose).
`COc1ccc(C[C@@H]2NC(=O)[C@H]([C@@H](C)O)NC(=O)[C@@H]3[C@@H]4CCN3C(=O)[C@@H]3Cc5cn(c6ccc(F)cc56)CCCCCCN(Cc5ccc(cc5)CCNC(=O)[C@]5(C)CCCN5C2=O)C(=O)CCC(=O)N[C@@H](C)C(=O)N[C@H](CNC(=O)CCCCC[N+](C)(C)C)C(=O)N[C@@H](Cc2cccc(c2)CNC(=O)CO4)C(=O)N3)cc1`: “participants with adverse event” 0% (item: Somnolence; humans; concentration not given, Study-003).
Under “final permeate concentration”, `Oc1c(Cl)cc2c(c1Cl)Oc1cc(Cl)c(Cl)cc1O2` is recorded as 1.85 nM (ultrafiltration; cow milk whey; 20 nM nominal in whole milk).
`CCC[C@@](N)(CO)CCc1ccc(OCCCCCC(C)C)cc1` gave a clearance of 10.8 mL/min/kg (hound dogs, male; intravenous, 1.0 mg/kg, geometric mean).
`O=S(=O)(Nc1ccccc1)c1ccc(NC(=S)Nc2ccccc2)cc1` — result for “serum enzyme activity”: 112 U/L (item: ALKP; male mouse, blood; oral, 5 mg/kg daily, 14 days).
`CC1(C)[C@H](C(=O)O[C@H](C#N)c2cccc(Oc3ccccc3)c2)[C@@H]1C=C(Br)Br` — result for “hepatic intrinsic clearance”: 7420 L/h/kg liver (IVIVE scaling; human adult).
`C[C@@H]1OC(=O)NN=C1c1ccc(-c2ccc(F)cc2)c(C(F)(F)F)c1` — result for “patients with adverse event”: 0% (phase I trial, item: Anaemia worst grade 3; human patients; 5 mg once daily).
Under “mean corpuscular hemoglobin concentration”, `COc1cccc(Oc2ccccc2NC(=O)CNC(=O)c2cccc3ccccc23)c1` is recorded as 31.1 g/dL and 31.7 g/dL and 32.3 g/dL (esterase-deficient SCID mice, male, blood; oral, 15 mg/kg/day, 14 days, toxicity study).
`CC(C)C[C@H](NC(=O)[C@H](CCCCN)NC(=O)OCC1c2ccccc2-c2ccccc21)C(=O)N[C@H](C(=O)N[C@@H](Cc1ccccc1)C(=O)N[C@@H](Cc1ccccc1)C(=O)N[C@@H](CCCCN)C(=O)NCC(=O)N[C@@H](Cc1ccccc1)C(=O)N[C@@H](C)C(=O)N[C@@H](Cc1c[nH]c2ccccc12)C(=O)N[C@@H](CC(N)=O)C(=O)N[C@H](C(=O)N[C@H]1CSSC[C@@H](C(=O)N[C@@H](Cc2c[nH]cn2)C(=O)N[C@@H](CCCNC(=N)N)C(=O)N[C@@H](CCCNC(=N)N)C(=O)N[C@@H](C)C(=O)N[C@@H](CC(N)=O)C(N)=O)NC(=O)[C@H](C(C)C)NC(=O)[C@H](CCCNC(=N)N)NC(=O)[C@H](C(C)C)NC(=O)CNC(=O)[C@H](CC(N)=O)NC(=O)[C@H](CCCNC(=N)N)NC(=O)[C@H](Cc2ccc(O)cc2)NC(=O)[C@H](C(C)C)NC1=O)C(C)C)C(C)C`: “secondary structure content” 43.6% (circular dichroism, item: antiparallel β-sheet; PBS; 80 µM, pH 7.4, together with: LTA 1 µM).
`O=C(Nc1ccccc1)C1CCN(C(=O)Oc2cccnc2)CC1`: “subjects with Phlebitis adverse event” 0% (adverse event reporting; healthy women; oral, 20 mg).
With `COc1ncccc1-c1cnn2ccc(N3CCN(C(=O)OC(C)C)CC3)nc12` the drug concentration was 2900 nM (mouse nerve ligation model, brain; oral, 3 mg/kg, 30 min after last dose, repeat dosing day 5).
`C[C@H]1CN(C(=O)CC#N)[C@]12CCN(c1ncnc3[nH]ccc13)C2` — result for “Cmax at NOAEL”: 2230 ng/mL (dog, female; oral, 3 mg/kg repeated, 3 months).
For `Cc1ccc(-c2nc(C[S+]([O-])CC(=O)N3CCN(c4ccc(Cl)cc4)CC3)c(C)o2)cc1` (stereo not shown), the cytotoxicity efficacy was -16.9% (Vero-E6; CellTiter-Glo ATP; concentration not given, 72 h, first round 5-point; reference: DMSO 0%, hyamine -100%, more negative, more toxic).
For `COc1ncnn2ccc(-c3cnc4nc(C)n(Cc5nnc([C@@H](C)F)o5)c4c3)c12`, “incidence of Diarrhea” read 7.1% (human patients; oral, dose not given, grade 1 adverse drug reaction).
`CCN(CCO)CCCC(C)Nc1ccnc2cc(Cl)ccc12` (stereo not shown) — result for “patients with adverse event”: 33% (item: Constipation grade 1; newly diagnosed glioblastoma patients; oral, 800 mg/dose, with radiotherapy and temozolomide).
The reduction potential of `O=C(Oc1ccccc1)[c-]1cccc1.[Fe+2].c1cc[cH-]c1` is reported as 559 mV (cyclic voltammetry; methanol/DMEM 1:1 with TBAPF6; concentration not given, Pt disk electrode, Ag/AgCl reference, together with: scan rate 100 mV/s).
For `CO[C@H]1C[C@@H]2CC[C@@H](C)[C@@](O)(O2)C(=O)C(=O)N2CCCC[C@H]2C(=O)O[C@H]([C@H](C)C[C@@H]2CC[C@@H](OC(=O)NCCOCCOCCOCCOCCOCCOCCOCCOCCC(=O)N3CCc4cc(Cn5nc(-c6ccc7oc(N)nc7c6)c6c(N)ncnc65)ccc4C3)[C@H](OC)C2)C[C@@H](O)[C@H](C)/C=C(\C)[C@@H](O)[C@@H](OC)C(=O)[C@H](C)C[C@H](C)/C=C/C=C/C=C/1C`, “incidence of any TEAE” read 100% (patients with advanced solid tumours; intravenous, 1.6 mg/3 mg weekly, any grade).
The sodium of `CCc1ccc(CC/C=C/c2ccc3c(c2)C(=O)CC3)cc1` is reported as 143 mM (Sprague-Dawley rat, male, serum; oral, 450 mg/kg/day, 14 days).
`CN[C@@H](C)C(=O)N[C@H]1CN(S(=O)(=O)c2cccc(S(=O)(=O)N3CC[C@H]4CC[C@@H](C(=O)NC(c5ccccc5)c5ccccc5)N4C(=O)[C@@H](NC(=O)[C@H](C)NC)C3)c2)CC[C@H]2CC[C@@H](C(=O)NC(c3ccccc3)c3ccccc3)N2C1=O`: “treatment-related facial nerve disorder incidence” 0% (patients with advanced solid tumours; 4 mg, phase I monotherapy).
`C[C@]1(CO)Cc2ncn(-c3ccc(C#N)c(Cl)c3)c2C(=O)O1` — result for “drug-related Dizziness incidence”: 0% (healthy humans; concentration not given, food-effect part total).
The sodium of `Clc1ccc(-c2ccccc2)cc1` is reported as 129 ± 7 mM (female Sprague-Dawley rats, serum; inhalation, 23 µg/rat, 1 h after exposure).
Under “treatment-related adverse events”, `CCCCCCCCCCCCCCCC(=O)N[C@@H](CCC(=O)NCCCC[C@H](NC(=O)[C@H](CC(=O)O)NC(=O)[C@H](CO)NC(=O)[C@@H](NC(=O)[C@H](Cc1ccccc1)NC(=O)[C@@H](NC(=O)CNC(=O)[C@H](CCC(N)=O)NC(=O)[C@H](CO)NC(=O)[C@@H](N)Cc1c[nH]cn1)[C@@H](C)O)[C@@H](C)O)C(=O)N[C@@H](CO)C(=O)N[C@@H](CCC(=O)O)C(=O)N[C@@H](Cc1ccc(O)cc1)C(=O)N[C@@H](CC(C)C)C(=O)N[C@@H](CC(=O)O)C(=O)N[C@@H](CO)C(=O)N[C@@H](CCC(=O)O)C(=O)N[C@@H](CCCNC(=N)N)C(=O)N[C@@H](C)C(=O)N[C@@H](CCCNC(=N)N)C(=O)N[C@@H](CC(=O)O)C(=O)N[C@@H](Cc1ccccc1)C(=O)N[C@H](C(=O)N[C@@H](C)C(=O)N[C@@H](Cc1c[nH]c2ccccc12)C(=O)N[C@@H](CC(C)C)C(=O)N[C@@H](CCC(=O)O)C(=O)N[C@@H](C)C(=O)NCC(=O)NCC(=O)O)C(C)C)C(=O)O` is recorded as 0% (item: Hyperglycaemia; humans CrCl at least 90 mL/min; subcutaneous, 100 µg single dose).
For `COc1cc2c(Oc3ccc4[nH]c(C)cc4c3F)ccnc2cc1OCC1(N)CC1`, “grade 1 or 2 abdominal distension” read 0% (paediatric recurrent refractory sarcoma; 8 mg).
For `CC(=O)c1c(C)c2cnc(Nc3ccc(C4CCN(CCS(C)(=O)=O)CC4)cn3)nc2n(C2CCCC2)c1=O`, “patients with serious adverse reactions” read 0% (HR+/HER2- advanced breast cancer patients; oral, 100 mg, dose escalation).
`COc1ccc(-c2c(-c3ccc(C#N)c(F)c3)nc(N3CCC(N)CC3)n(C)c2=O)cc1F` — result for “treatment-related adverse event incidence”: 0% (item: Anemia; neuroendocrine neoplasm patients; oral, 60 mg, grade 3 to 4, dose expansion).
The eosinophils of `COc1ccc2nc3cc(Cl)ccc3c(Nc3cc(CN4CCCC4)c(O)c(CN4CCCC4)c3)c2n1` is reported as 4.89% (mouse, blood; oral, 57 mg/kg, tolerability, mean).

For quick reference, copied from above:
The reduction potential of `O=C(Oc1ccccc1)[c-]1cccc1.[Fe+2].c1cc[cH-]c1` is reported as 559 mV (cyclic voltammetry; methanol/DMEM 1:1 with TBAPF6; concentration not given, Pt disk electrode, Ag/AgCl reference, together with: scan rate 100 mV/s).
For `Cc1ccc(-c2nc(C[S+]([O-])CC(=O)N3CCN(c4ccc(Cl)cc4)CC3)c(C)o2)cc1` (stereo not shown), the cytotoxicity efficacy was -16.9% (Vero-E6; CellTiter-Glo ATP; concentration not given, 72 h, first round 5-point; reference: DMSO 0%, hyamine -100%, more negative, more toxic).
`C[C@@H]1OC(=O)NN=C1c1ccc(-c2ccc(F)cc2)c(C(F)(F)F)c1` — result for “patients with adverse event”: 0% (phase I trial, item: Anaemia worst grade 3; human patients; 5 mg once daily).
The faecal recovery of `O=c1cc(-c2ccc(O)c(O)c2)oc2cc(O)cc(O)c12` is reported as 0.01 ± 0.01% (Sprague-Dawley rat, male, obese, faeces; oral, 100 mg/kg neohesperidin, 48 h; reference: dose).
